Experimental data gathered from unrelated publications.
Compare with care: the assays were run in different laboratories. Numbers after ± are the reported error. ≈ marks a conversion by molar mass, not a printed value.

| Compound | organism | assay | test system | setting | scale | quantity | value |
| --- | --- | --- | --- | --- | --- | --- | --- |
| COC(=O)C1=CO[C@@H](C)[C@@H]2Cn3ccc4c5ccccc5nc-4c3C[C@H]12 | Plasmodium falciparum | growth, [3H]-hypoxanthine uptake | FCR3 | 48 h | relative to: FCR3 IC50 over 3D7 IC50 | resistance index | 0.2 |
| Cc1cc(C(=O)Nc2nc3cccc(C)c3n2[C@H]2CCCCN(C(=O)/C=C/CN(C)C)C2)ccn1 | Trypanosoma brucei | – | STIB795, mouse acute HAT model | oral, 7.5 mg/kg once daily for 4 days, day 5 | relative to: mice | survival | 83.3% |
| CC[C@H](C)[C@H](NC(=O)[C@H](CCCCN)NC(=O)[C@H](CCCCN)NC(=O)[C@H](Cc1ccccc1)NC(=O)[C@H](Cc1ccccc1)NC(=O)[C@H](CCCCN)NC(=O)[C@H](CCCCN)NC(=O)[C@H](Cc1ccccc1)NC(=O)[C@H](CCCNC(=N)N)NC(=O)[C@@H](N)CCCCN)C(=O)N[C@@H](CCCCN)C(=O)N[C@@H](CCCCN)C(=O)N[C@@H](CO)C(=O)N[C@H](C(=O)N[C@@H](CCCCN)C(=O)N[C@@H](CCCCN)C(=O)N[C@@H](CCCNC(=N)N)C(=O)N[C@H](C(=O)N[C@@H](CCCCN)C(=O)N[C@@H](CCCCN)C(=O)N[C@@H](CC(C)C)C(=O)N[C@@H](Cc1ccccc1)C(=O)N[C@@H](CCCCN)C(=O)N[C@@H](CCCCN)C(=O)N1CCC[C@H]1C(=O)N[C@@H](CCCNC(=N)N)C(=O)N[C@H](C(=O)N[C@H](C(=O)N1CCC[C@H]1C(=O)N[C@H](C(=O)N[C@@H](CO)C(=O)N[C@H](C(=O)N1CCC[C@H]1C(=O)N[C@@H](Cc1ccccc1)C(=O)O)[C@@H](C)CC)[C@@H](C)CC)[C@@H](C)CC)C(C)C)C(C)C)C(C)C | Escherichia coli | – | E23 clinical isolate | 20 h | – | MBC | 16 µg/mL |
| CN(C)c1nc(NCc2ccccc2F)c(/N=N/c2ccc(Cl)cc2)c(N(C)C)n1 | Ostrinia furnacalis | leaf dipping | – | 200 mg/L, 96 h | – | mortality | 93.3 ± 11.6% |
| FC(F)(F)c1cccc(CNc2nc(NC3CCN(Cc4ccccc4)CC3)c3nc[nH]c3n2)c1 | Cryptococcus neoformans | mRNA level, RNA-seq, item: ARG2 CNAG_02802 | – | 48 µg/mL, 3 h | relative to: untreated | fold change | 2.19 |
| CCOC(=O)C1(Cc2cc(F)c(F)c(F)c2)Oc2cc(F)ccc2N(Cc2cc(F)c(F)c(F)c2)C1=O (centres unmarked) | Setaria viridis | fresh weight, greenhouse postemergence | – | postemergence, 150 g ai/ha, 21 days | – | inhibition | 39.2 ± 2.46% |
| [O-][N+]1=C(c2ccc(Cl)cc2)C2=NCCCCN2c2ccccc21 | Clostridioides difficile | microbial growth | – | – | – | MIC50 | 2 µg/mL (≈ 6.14 µM) |
| CC(C)[C@H]1NC(=O)[C@H](Cc2ccccc2)NC(=O)[C@@H](C(C)C)NC(=O)[C@@H](C)NC(=O)[C@H](CO)NC(=O)[C@@H](Cc2c(-c3ccccc3-c3ccccc3)[nH]c3ccccc23)NC(=O)[C@@H](CO)NC1=O | Mycobacterium marinum | – | – | – | – | MIC90 | > 100 µM |
| CCCC(=O)OCCSC[C@H](N)C(=O)N[C@H](CCN)C(=O)N[C@@H](CCN)C(=O)N[C@@H](CCN)C(=O)N[C@@H](CC(C)C)C(=O)N[C@H](Cc1ccccc1)C(=O)N[C@@H](CCN)C(=O)N[C@@H](CCN)C(=O)N[C@@H](CC(C)C)C(N)=O | Acinetobacter calcoaceticus | BHI agar spot plating | – | 24 h, 37 °C | – | MBC | > 128 µM |
| NCCCO.O=C(O)C(Cl)Cl | Solanum nigrum | herbicidal activity | – | 15 mg/mL, 21 days, pre-emergence greenhouse | – | inhibition | 0% |
| Cc1cc(Cl)cc([S+](C)[O-])c1NC(=O)c1cc(Br)nn1-c1ncccc1Cl (centres unmarked) | Spodoptera litura | leaf-dip | third instar larvae | 50 ppm, 24 h | – | mortality | 3.3% |

Excerpt of the above:
| Compound | organism | assay | test system | setting | scale | quantity | value |
| --- | --- | --- | --- | --- | --- | --- | --- |
| FC(F)(F)c1cccc(CNc2nc(NC3CCN(Cc4ccccc4)CC3)c3nc[nH]c3n2)c1 | Cryptococcus neoformans | mRNA level, RNA-seq, item: ARG2 CNAG_02802 | – | 48 µg/mL, 3 h | relative to: untreated | fold change | 2.19 |
